Results from different studies.
Each line is one published result; not all experiments were run side by side. Several values in a cell are separate wells, animals, samples, runs or records. ± gives the spread as reported.

Structure (SMILES)	cell line	assay	conditions	how to read	measurement	value
CC(C)=CCc1c(O)cc2c(c1O)C(=O)OC2	HepG2, palmitic acid-induced insulin resistance	–	12.5 µM, 24 h	–	glucose consumption	10.6 ± 0.84 mM
O=C(NCCN1C(=O)CCC1=O)[O][Pt]12([O]C(=O)NCCN3C(=O)CCC3=O)([NH][C@@H]3CCCC[C@H]3[NH]1)[O]C(=O)C(=O)[O]2	CT26	ICP-MS	10 µM, pre-incubated in FCS	baseline: oxaliplatin over compound	cellular platinum uptake	~100 fold
COc1cc(CNC(=O)C[C@H](C)CCC=C(C)C)ccc1OCc1cn(-c2ccc(Cl)c(Cl)c2)nn1	SR leukaemia cells	SRB	10 µM, 48 h	–	growth percent	27.1%
O=C(NCCCCc1ccccc1)n1c(=O)oc2cc(-c3ccc(F)cc3)ccc21	SW-403 and RAW264.7	–	0.1 to 20 µM, 3 h	–	sphingosine level	decreased
C=CC(=O)Nc1cc(Nc2nccc(-c3c(-c4cccc(F)c4)n(C)c4ccccc34)n2)c(OC)cc1N(C)CCN(C)C	H1975	Western blot, item: Bcl-2	concentration not given, 24 h	–	protein level	decreased
COc1cc(N2CCN(C(=O)C3CCCN3)CC2)ccc1Nc1ncc(Cl)c(Nc2ccccc2P(C)(C)=O)n1 (stereo not shown)	Ba/F3 EML4-ALK	flow cytometry	1 µM	–	onset of apoptosis	3 h
CC(Cc1ccc(Cl)cc1)=C(c1ccc(Cl)cc1)c1ccc(OCCN(C)C)cc1	NCI-60 tumour cell lines	–	10 µM, mean over cell lines	–	growth inhibition	51.9%
COc1cc(CNC(=O)C[C@H](C)CCC=C(C)C)ccc1OCc1cn(-c2ccc(C#N)cc2)nn1	SF-295 CNS cancer cells	SRB	10 µM, 48 h	–	growth percent	54%
COc1ccc([C@@H]2CC(=O)c3c(O)cc(O[C@@H]4O[C@H](CO[C@@H]5O[C@@H](C)[C@H](O)[C@@H](O)[C@H]5O)[C@@H](O[C@H]5O[C@H](CO)[C@@H](O)[C@H](O)[C@H]5O)[C@H](O)[C@H]4O)cc3O2)cc1O	A549	cell migration, scratch	50 µg/mL, 72 h	–	gap closure	9.28 ± 1.49%
Cc1cc(/N=N/c2ccc(/N=N/c3ccc(O)c(C(=O)O)c3)cc2)c(N)cc1N	primary mouse articular chondrocytes	real-time PCR, item: Sox9	25 µM, micromass culture	–	mRNA level	increased
CC(C)[C@@H](NC(=O)[C@H](N)CCCNC(=N)N)C(=O)N[C@H](CCCCN)C(=O)N[C@@H](C(=O)N[C@H](CCCCN)C(=O)N[C@@H](C(=O)N[C@@H](C(=O)N[C@@H](C(=O)N[C@@H](C(=O)N[C@H](CCCNC(=N)N)C(=O)N[C@H](CCCNC(=N)N)C(=O)N[C@H](CCCNC(=N)N)C(=O)N[C@H](CCCNC(=N)N)C(=O)N[C@H](CCCNC(=N)N)C(=O)N[C@H](CCCNC(=N)N)C(=O)N[C@H](CCCNC(=N)N)C(=O)N[C@H](CCCNC(=N)N)C(=O)N[C@H](CCCNC(=N)N)C(N)=O)C(C)C)C(C)C)C(C)C)C(C)C)C(C)C	human PBMC CD4+ T cells	flow cytometry	concentration not given, 72 h, unstimulated	–	Ki67 expression	increased
COc1cc(CNC(=O)C[C@H](C)CCC=C(C)C)ccc1OCc1cn(-c2cccc(Cl)c2)nn1	Malme-3M melanoma cells	SRB	10 µM, 48 h	–	growth percent	87.2%
C[n+]1cn(C2OC(COP(=O)(O)OP(=O)([O-])OP(=O)(O)OCC3OC(n4cnc5c(=O)[nH]c(N)nc54)C(O)C3O)C(O)C2O)c2nc(NCc3ccc(Cl)cc3)[nH]c(=O)c21 (stereo not shown)	HEK293 transfected with capped mRNA	luciferase expression	–	baseline: m7GpppG-capped mRNA	relative protein expression	2.3 and 2.29
COc1cc(CNC(=O)C[C@H](C)CCC=C(C)C)ccc1OCc1cn(-c2cccc([N+](=O)[O-])c2)nn1	HCC 2998	SRB	10 µM, 48 h	–	growth percent	91.4%
[Ru+2].c1ccc(-c2cccc(-c3ccccn3)n2)nc1.c1ccc2nc(-c3ccc4ccccc4n3)ccc2c1.c1cnccn1	HL-60	–	–	baseline: dark IC50 over light IC50	phototoxicity index	1.9
COc1cc(CNC(=O)C[C@H](C)CCC=C(C)C)ccc1O	SR leukaemia cells	SRB	10 µM, 48 h	–	growth percent	90.6%
O=Cc1c(O)ccc2ccccc12	HUVEC	RNA sequencing, item: PALD1	75 µM, 24 h	baseline: DMSO	log2 fold change	-3.48
COc1cc(CNC(=O)C[C@H](C)CCC=C(C)C)ccc1OCc1cn(-c2ccc(Cl)cc2Cl)nn1	Malme-3M melanoma cells	SRB	10 µM, 48 h	–	growth percent	79.3%
CC(/C=C/C(=O)NO)=C\[C@@H](C)C(=O)c1ccc(N(C)C)cc1	H1975	Western blot	10 µM	–	ERK phosphorylation	decreased

A few entries again:
Structure (SMILES)	cell line	assay	conditions	how to read	measurement	value
COc1cc(N2CCN(C(=O)C3CCCN3)CC2)ccc1Nc1ncc(Cl)c(Nc2ccccc2P(C)(C)=O)n1 (stereo not shown)	Ba/F3 EML4-ALK	flow cytometry	1 µM	–	onset of apoptosis	3 h
COc1cc(CNC(=O)C[C@H](C)CCC=C(C)C)ccc1OCc1cn(-c2cccc([N+](=O)[O-])c2)nn1	HCC 2998	SRB	10 µM, 48 h	–	growth percent	91.4%
